Measurements of several laboratories.
Compare with care: the assays were run in different laboratories. “And” joins repeats or separate records; there may be more than shown. ± gives the spread as reported.
T1: BPTF PHD domain Y23M; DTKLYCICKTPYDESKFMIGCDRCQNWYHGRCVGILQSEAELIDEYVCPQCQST
B1: SDC4 ectodomain 19-145 (Homo sapiens, UniProt P31431); heparan sulfate chains; sequence looked up; chain ESIRETEVIDPQDLLEGRYFSGALPDDEDVVGPGQESDDFELSGSGDLDDLEDSMIGPEVVHPLVPLDNHIPERAGSGSQVPTEPKKLEENEVIPKRISPVEESEDVSNKVSMSSTVQGSNIFERTE
B2: CFH domains 1108-1231 L1189R (Homo sapiens, UniProt P08603); sequence looked up; chain KCGPPPPIDNGDITSFPLSVYAPASSVEYQCQNLYQLEGNKRITCRNGQWSEPPKCLHPCVISREIMENYNIALRWTAKQKRYSRTGESVEFVCKRGYRLSSRSHTLRTTCWDGKLEYPTCAKR
B3: RRP1B 657-758 (Homo sapiens, UniProt Q14684); chain RRAKSSTATHPPGPAVQLNKTPSSSKKVTFGLNRNMTAEFKKTDKSILVSPTGPSRVAFDPEQKPLHGVLKTPTSSPASSPLVAKKPLTTTPRRRPRAMDFF
B4: BRAF kinase 448-723 K723G/P722S/S720E/L716E/S713E/Q709R/L706S/A688R/Y673S/F667Y/K630S/V600E/L588N/Q562R (Homo sapiens, UniProt P15056); sequence looked up; chain DDWEIPDGQITVGQRIGSGSFGTVYKGKWHGDVAVKMLNVTAPTPQQLQAFKNEVGVLRKTRHVNILLFMGYSTKPQLAIVTQWCEGSSLYHHLHASETKFEMKKLIDIARQTARGMDYLHAKSIIHRDLKSNNIFLHEDNTVKIGDFGLATEKSRWSGSHQFEQLSGSILWMAPEVIRMQDSNPYSFQSDVYAFGIVLYELMTGQLPYSNINNRDQIIYMVGRGSLSPDLSKVRSNCPKRMKRLMAECLKKKRDERPSFPRILAEIEELARELSG
B5: TWF1 (Saccharomyces cerevisiae, UniProt P53250); SNAP-Surface-549 label; chain MSTQSGIVAEQALLHSLNENLSADGIVIIIAKISPDSTSVHQTQVARSFEELVQLASQEREPLYIFYKPEGLDKYFFVSFIPDGSPVRSRMLYASTKNTLARQVGSNSLSTEQPLITDAQDLVDLKNFDSARPAGQNKPLTHDEEMQIEINKQQALLRKNTSVKLVSQDSASPLSLTFRVNSEKPINEILDSEGKNLIIFQIDPSNETIQIVQSDTCPSVDELYIDLPGPSYTIFRQGDSSFFIYSCPSGSKVKDRMIYASNKNGFINYLKNDQKIAFSKVVEIGDFVELDKSLLMATNKEDSLDHGSNPDLPNKSNLKFNKPKGPLRKRRT
B6: DNAJB11 23-358 (Homo sapiens, UniProt Q9UBS4); chain GRDFYKILGVPRSASIKDIKKAYRKLALQLHPDRNPDDPQAQEKFQDLGAAYEVLSDSEKRKQYDTYGEEGLKDGHQSSHGDIFSHFFGDFGFMFGGTPRQQDRNIPRGSDIIVDLEVTLEEVYAGNFVEVVRNKPVARQAPGKRKCNCRQEMRTTQLGPGRFQMTQEVVCDECPNVKLVNEERTLEVEIEPGVRDGMEYPFIGEGEPHVDGEPGDLRFRIKVVKHPIFERRGDDLYTNVTISLVESLVGFEMDITHLDGHKVHISRDKITRPGAKLWKKGEGLPNFDNNNIKGSLIITFDVDFPKEQLTEEAREGIKQLLKQGSVQKVYNGLQGY
B7: PUX6 269-435 (Arabidopsis thaliana, UniProt F4IXN6); chain VTYTVTIWRNGFTVDDDPFKSLDDPENAAFLEYMPEDNKFGVPTTTRSTSCSSQTHQELQTLAGSESTSTEPPLTTTQPPSMSSLVVDPAAPTTSIQLILADSTRIVTQFNTHHTIRDIRCFIDTSRPDGSKDYQLLIMGSPPTPLSDFDQTIEKAGIANSVLVQKF
B8: SGIP1 69-156 S95C (mouse, UniProt Q8VD37); Alexa Fluor 488 label; chain AEIDWERYNSPELDEEGYSIRPEEPGCTKGKHFYSSSESEEEEESHKKFNIKIKPLQSKDVLKNAATVDELKASIGNIALSPSPVRKS
B9: EFR3B 716-787 (Homo sapiens, UniProt Q9Y2G0); chain VPAEEITYETLKKAIVDSVAVEEQERERRRQVVEKFQKAPFEEIAAHCGARASLLQSKLNQIFEITIRPPPS
B10: LLGL2 13-978 (Homo sapiens, UniProt Q6P1M3); Hilyte488 N-terminal label; chain RERLKRDLFQFNKTVEHGFPHQPSALGYSPSLRILAIGTRSGAIKLYGAPGVEFMGLHQENNAVTQIHLLPGQCQLVTLLDDNSLHLWSLKVKGGASELQEDESFTLRGPPGAAPSATQITVVLPHSSCELLYLGTESGNVFVVQLPAFRALEDRTISSDAVLQRLPEEARHRRVFEMVEALQEHPRDPNQILIGYSRGLVVIWDLQGSRVLYHFLSSQQLENIWWQRDGRLLVSCHSDGSYCQWPVSSEAQQPEPLRSLVPYGPFPCKAITRILWLTTRQGLPFTIFQGGMPRASYGDRHCISVIHDGQQTAFDFTSRVIGFTVLTEADPAATFDDPYALVVLAEEELVVIDLQTAGWPPVQLPYLASLHCSAITCSHHVSNIPLKLWERIIAAGSRQNAHFSTMEWPIDGGTSLTPAPPQRDLLLTGHEDGTVRFWDASGVCLRLLYKLSTVRVFLTDTDPNENFSAQGEDEWPPLRKVGSFDPYSDDPRLGIQKIFLCKYSGYLAVAGTAGQVLVLELNDEAAEQAVEQVEADLLQDQEGYRWKGHERLAARSGPVRFEPGFQPFVLVQCQPPAVVTSLALHSEWRLVAFGTSHGFGLFDHQQRRQVFVKCTLHPSDQLALEGPLSRVKSLKKSLRQSFRRMRRSRVSSRKRHPAGPPGEAQEGSAKAERPGLQNMELAPVQRKIEARSAEDSFTGFVRTLYFADTYLKDSSRHCPSLWAGTNGGTIYAFSLRVPPAERRMDEPVRAEQAKEIQLMHRAPVVGILVLDGHSVPLPEPLEVAHDLSKSPDMQGSHQLLVVSEEQFKVFTLPKVSAKLKLKLTALEGSRVRRVSVAHFGSRRAEDYGEHHLAVLTNLGDIQVVSLPLLKPQVRYSCIRREDVSGIASCVFTKYGQGFYLISPSEFERFSLSTKWLVEPRCLVDSAETKNHRPGNGAGPKKAPSRARNSGTQSDGEEKQPGLVMER
B11: PUX7 171-468 (Arabidopsis thaliana, UniProt Q94JZ8); chain LASLYRPPFHLMFQGSFEQAKTTSSSQDKWLLVNLQSTTEFSSHMLNRDTWANDAVSQTIKANFIFWQVYDDTTEGRKVCTYYKLESIPVVLVIDPTTGQRMRMWTGMVDPENLLEDLVPFMDGGPREHFASLSKKRPRGSFSLTPHSKPKEDVAKDEEEEELQRALAASLEDNNMKESSDDQSTIIPEEVAVEAVTSAVLPTFPPLPEEPKGGDRSLQCRVGIRLPNGQRLQRNFLKTDTIQLLWSFCYSQLEESERKKPLKLTQAIPGESKTLEYESNLTLEQSGVANSMISATWE
B12: Cacna1c 1647-1777 (Mus musculus, UniProt Q01815); sequence looked up; chain NALSLQAGLRTLHDIGPEIRRAISGDLTAEEELDKAMKEAVSAASEDDIFRRAGGLFGNHVTYYQSDSRGNFPQTFATQRPLHINKTGNNQADTESPSHEKLVDSTFTPSSYSSTGSNANINNANNTALGR
B13: NR3C1 98-420 (Homo sapiens, UniProt P04150); pyrene label; chain MGNDLGFPQQGQISLSSGETDLKLLEESIANLNRSTSVPENPKSSASTAVSAAPTEKEFPKTHSDVSSEQQHLKGQTGTNGGNVKLYTTDQSTFDILQDLEFSSGSPGKETNESPWRSDLLIDENCLLSPLAGEDDSFLLEGNSNEDCKPLILPDTKPKIKDNGDLVLSSPSNVTLPQVKTEKEDFIELCTPGVIKQEKLGTVYCQASFPGANIIGNKMSAISVHGVSTSGGQMYHYDMNTASLSQQQDQKPIFNVIPPIPVGSENWNRCQGSGDDNLTSLGTLNFPGRTVFSNGYSSPSMRPDVSSPPSSSSTATTGPPPKL
B14: acpP (Escherichia coli, UniProt P0A6A8); 4-DMN-phosphopantetheine; sequence looked up; chain MSTIEERVKKIIGEQLGVKQEEVTNNASFVEDLGADSLDTVELVMALEEEFDTEIPDEEAEKITTVQAAIDYINGHQA

MDGA2 (Homo sapiens, UniProt Q7Z553)  Kd (EPHB2 (Homo sapiens, UniProt P29323); Scatchard binding to cells; HEK293T; in cells): 0.102 µM
B1 (SDC4 ectodomain 19-145)  Kd (FGF2, 125I label (UniProt P09038); radioligand binding; cell-free): 0.0027 µM
ARTKQTARKSTGGY (H3 1-13; K4me3)  Kd (T1, BPTF PHD domain Y23M; ITC; peptide): 7.97 µM and 6.91 µM and 7.66 µM
B2 (CFH domains 1108-1231 L1189R)  Kd (C3 C3dg 955-1303 (Homo sapiens, UniProt P01024); SPR): 1.3 ± 0.1 µM
B3 (RRP1B 657-758)  Kd (PPP1CA 7-330 Q20R (Homo sapiens, UniProt P62136); ITC): 0.0637 µM
B4  Kd (MAP2K1 (Homo sapiens, UniProt Q02750); BLI): 0.0186 ± 0.0007 µM
B5 (TWF1)  Kd (ACTA1 F-actin filaments, Alexa-488 label (Oryctolagus cuniculus, UniProt P68135); single-molecule TIRF): 0.128 ± 0.021 µM
TGFBR2 extracellular domain/anti-EGFR IgG1 fusion bifunctional fusion (Homo sapiens)  Kd (FCGR3A V176F; SPR): 1.25 ± 0.17 µM
GCVRLHESCLGQQVPCCDPAATCYCEGRGDRDMKCYCR (designed binder)  Kd (ITGAV/ITGB3 K562 cells; flow cytometry; designed binder, U87MG): 0.016 µM
NRVDSKETEC  binding intensity (human SCRIB PDZ3-4 tandem (MBP fusion); automated holdup; peptide, purified PDZ protein; concentration not given, unit not given; relative to: biotin control resin, higher = stronger binding): 0.4
B6 (DNAJB11 23-358)  Kd (HSPA5 28-654 (Homo sapiens, UniProt P11021); MST): 8.5 ± 1 µM
B7 (PUX6 269-435)  Kd (CDC48A 1-190 (Arabidopsis thaliana, UniProt P54609); BLI; 25 °C): 0.0643 ± 0.0003 µM
B8 (SGIP1 69-156 S95C)  Kd (AP2A2/AP2B1/AP2M1/AP2S1 core, lacking appendage domains (Mus musculus); MST; with heparin): 0.057 µM
ENAH EVH1 domain (Homo sapiens)  Kd (WBP2 20-residue peptide (Homo sapiens); BLI): 11.8 µM
B9 (EFR3B 716-787)  Kd (TTC7B/FAM126A 1-308; BLI): 0.000405 µM
GEYSSDFLTPEFVKFSMDLTNTEITATTSLPSFSTFMDNY (NR4A2 28-67 (Homo sapiens, UniProt P43354); sequence looked up)  Kd (Ncoa1 260-369 (Mus musculus, UniProt P70365); ITC; peptide): 10.9 µM
B10 (LLGL2 13-978)  Kd (PRKCI/PARD6B 1-596, activation loop phosphorylated; fluorescence polarisation; added: ADP): 0.0074 µM
petF ferredoxin (Synechocystis sp. PCC 6803, UniProt P27320)  Kd (narB M149A (Synechococcus sp. PCC 7942); UV-visible difference titration): 6.8 ± 1.3 µM
B11 (PUX7 171-468)  Kd (CDC48A 1-463 (Arabidopsis thaliana, UniProt P54609); ITC; 10 °C): 5.3 ± 0.4 µM
B12 (Cacna1c 1647-1777)  Kd (Jph2 1-440 S165Q (Mus musculus, UniProt Q9ET78); ITC): 7.82 µM
SCN2A fragment R1914A (Homo sapiens) (sequence not shown)  Kd (CALM1 (Homo sapiens, UniProt P0DP23); fluorescence titration; added: CaCl2): 0.292 µM
ALB (Homo sapiens, UniProt P02768)  cross-linked residues (ATP6V1C1 (Homo sapiens, UniProt P21283); cross-linking MS; added: DSSO): K549 to K274
GSGESVNWKCCYSLTLQE (designed peptide)  Kd (ERBB2 23-652 (Homo sapiens, UniProt P04626); ELISA; peptide): 2.7 ± 0.6 µM
LKEKHKILHRLLQDSSSPV (NCOA2 peptide; N-terminal 5-FAM)  Kd (PPARG 202-477 (Homo sapiens, UniProt P37231-2); FP; peptide): 18 µM and 27.6 µM
B13 (NR3C1 98-420)  Kd (TSG101 229-304 coiled coil, pyrene label (Homo sapiens, UniProt Q99816); fluorescence anisotropy): 20 µM
B14 (acpP)  Kd (fabA (Escherichia coli, UniProt P0A6Q3); fluorescence titration): 2.85 µM
CALLLSAPRR (GOT2 (Gallus gallus); fluorescein label)  Kd (HSPA9 mature L450A (Homo sapiens, UniProt P38646); FP; peptide): 26.6 µM
ARTKQTARKS (histone H3 2-11 (UniProt P68431); K4me3; sequence looked up)  Kd (ING2 199-261 (Homo sapiens, UniProt Q9H160); ITC; peptide): 4.1 µM and 6.5 µM

Repeated from above:
ARTKQTARKS (histone H3 2-11 (UniProt P68431); K4me3; sequence looked up)  Kd (ING2 199-261 (Homo sapiens, UniProt Q9H160); ITC; peptide): 4.1 µM and 6.5 µM
GSGESVNWKCCYSLTLQE (designed peptide)  Kd (ERBB2 23-652 (Homo sapiens, UniProt P04626); ELISA; peptide): 2.7 ± 0.6 µM
